Measured values pooled from the literature.
Parts stem from different laboratories: compare values within a part only. Substitutions count along the parent as printed.

Sample 1
Target: RNA binding protein fox-1 homolog 2, RRM domain, GST-SBP tag (RBFOX2, Homo sapiens, UniProt O43251-10, residues 100-194)
Technique: RNA Bind-n-Seq
Form: RNA
Medium: in vitro
Tested at: 365 nM
Notes: natural RNA segment, single round, ends assumed
Baseline: no-protein control
Direction: higher = stronger binding
Target sequence (chain): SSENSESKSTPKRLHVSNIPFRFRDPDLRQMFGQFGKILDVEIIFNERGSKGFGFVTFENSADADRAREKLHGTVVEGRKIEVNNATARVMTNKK
Sequence	RBNS enrichment (R)
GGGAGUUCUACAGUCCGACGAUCUCAGGAUGCUCUAAGUUGGAGUCAGCCGGGCUCGUUCAUCACUUCUUCGGUUGCUUUGCACCAGUAUGGUAUGGACAUGGGGUGGACAUUUCCAGGUAAGAGGAUCAGCGUGGAAUUCUCGGGUGCCAA	1.04
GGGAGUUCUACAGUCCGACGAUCUAAUGUUCUUUCUUCACAGCCGCUCCGGGAAUUCUGAAGUUCUGGGCCUUUCUCAGAAGACUGUAAUGUACCUGAAGUUUCUGAAAUAUUGCAAACCCACAGAGUUUAGGUGGAAUUCUCGGGUGCCAA	0.643
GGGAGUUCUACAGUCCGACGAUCCCAUGUCACAGAAAAGGUGAAACUAUUAGAUGCUGUUUAGAAAGCAUUUAUCUUGCAUUUCUUUAUUCUUUCUAAUUACCUAAAAUUCAAUAAAAGUUUAUUCAUAUAAAUGGAAUUCUCGGGUGCCAA	0.791
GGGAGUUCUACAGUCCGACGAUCACUUGGAGGGGUUUAUUGACUCUCCCCCCCCCUCCCCCGCUCUGUGACUUUUUUUUUUUUCUUCUCCCCAUUGGGUUUGCCUGUCGCUAACUAGCAUAGGUCCCACAGAGUGGAAUUCUCGGGUGCCAA	1.09
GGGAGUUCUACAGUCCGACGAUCUCCCCUGGGAGCUUCUUAGAAAUGCAGACCUGUGGGCUCUACCACAGGCCUCUGGAAUCAGAAUCUUCAGGGUGGGGCCCAGCAGUCUGUGUUUUAACAGGUUCUCCCGGUGGAAUUCUCGGGUGCCAA	0.22
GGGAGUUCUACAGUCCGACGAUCCCUCCUCUGGGAUACGGCACUUACACAUGGGAAGAAUGGUACGGGGAAGUGUAACACCUCAGAAAGUGACAAGUGACCAGGAUGGAACAUCAACAACAAUAACAACCAUUUGGAAUUCUCGGGUGCCAA	0.747
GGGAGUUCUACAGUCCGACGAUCGUAAUACAGAUUUUCAUAUCAGAGGUGGUUCUAGAGCAAUAGAAGUAUUAAGGUGAAUUUUUUUUAAGUAUUUGGGAUAGGUUUGCAGACACCUACAGUUACUGAAGUCUUGGAAUUCUCGGGUGCCAA	0.439
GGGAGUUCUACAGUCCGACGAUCAUACUCCAUACACUAUACUUCAUACUACAAGCUCCAUCUGUCCUCAGAUAAUUGUCUGACUUUUUUUAGUCUUAAGUAUAGAGGGAAUCCCCUAAAGGCUGAUCCAACUGUGGAAUUCUCGGGUGCCAA	0.33

Sample 2
Target: CCNA2, cyclin fold, Cln2 fusion (human)
Technique: yeast growth competition, sequencing
Medium: yeast
Notes: strong parent motif
Baseline: not given
Direction: higher = stronger binding
Starting sequence: SAMHD1 docking peptide (human); ASKSRVQLFKDDP
Change	normalised enrichment score
L8K	-0.1
D11G	1.86
D12V	3.2
S2I	3.55
Q7H	0.457
R5C	1.2
D12E	3.62
D12L	2.8
L8V	0.232
Q7E	1.57
K3F	1.1
F9C	-0.00555
D11Y	1.66
S2N	2.66
L8F	0.113
D11Q	1.95
L8R	-0.231
K10G	1.5
S2D	1.19
D12T	2.85
F9K	0.311
D11A	1.68
V6G	0.104
L8T	-0.22
S4N	0.664

Sample 3
Target: Interferon regulatory factor 7, full length, phosphomimetic (IRF7, Homo sapiens, UniProt Q92985, residues 1-503, S101K/S471D/S472D/S475D/S476D/S477D/S483D/S484D/S487D)
Technique: protein-binding microarray
Form: double-stranded DNA, one strand shown
Medium: in vitro
Tested at: 250 nM
Notes: 60-bp whole probe
With: salmon DNA 0.4 mg/ml
Baseline: random background probes
Direction: higher = stronger binding
Shared flanks, not repeated: GCCTAGCAC … GTCTTGATTCGCTTGACGCTGCTG
Residues (chain): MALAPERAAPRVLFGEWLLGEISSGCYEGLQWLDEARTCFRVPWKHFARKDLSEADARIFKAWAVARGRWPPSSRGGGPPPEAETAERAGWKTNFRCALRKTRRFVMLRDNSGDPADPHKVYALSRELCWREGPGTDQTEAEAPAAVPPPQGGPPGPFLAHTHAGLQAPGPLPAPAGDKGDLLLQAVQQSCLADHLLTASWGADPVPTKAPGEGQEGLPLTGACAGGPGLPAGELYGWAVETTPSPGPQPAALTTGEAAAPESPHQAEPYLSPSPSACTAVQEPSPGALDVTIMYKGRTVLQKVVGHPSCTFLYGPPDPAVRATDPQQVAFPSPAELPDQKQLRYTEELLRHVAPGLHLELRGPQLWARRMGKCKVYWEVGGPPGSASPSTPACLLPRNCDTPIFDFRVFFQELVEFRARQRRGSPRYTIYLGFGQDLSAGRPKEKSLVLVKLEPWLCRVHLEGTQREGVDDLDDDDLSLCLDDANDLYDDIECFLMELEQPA
Sequence	log fluorescence [z-score]
TTAGGTTTCCTACTGCATTAGTGCTAG	1.25
TTAGGTTTCGACTTTCGGCTAGTGCTA	10.6
GACGGATCCCTTTTCCTGACGTGCTAG	1.02
TTAGATATCGGGTATCCATTAGTGCTA	0.00276
TTAGGGATCCTTCTCCTTTAGTGCTAG	-0.194
TTAGATCTCAATTTCGATTAGTGCTAG	1.4
GACGGACTGGGTTTGGGGACGTGCTAG	-0.451
TTAGGTCTCGGTATCTGTTAGTGCTAG	2.69
GGAGGGGGGCGGGGCGGTGGGTGCTAG	4.86
TCACATCGTAAGCAAAAACTGTGCTAG	0.404
TTATGTTCCCTTTTCCTTTAGTGCTAG	3.06
GATGGACTGGGGACTGGGGACGTGCTA	-0.819
AATTGTCTCTGTCCCTGTTTGTGCTAG	1.68
TTAGATTTCAGACTGGAATAGTGCTAG	0.752
GATGAACTGAGTTTCGAGACGTGCTAG	3.32
TTAGGTTTCGACTATCGGGTAGTGCTA	5.22
GACGGTTTCATTATCCTGACGTGCTAG	4.47
GCTTTTTCCCCCCTCACGCAGTGCTAG	2.49

Sample 4
Target: RING finger protein unkempt homolog, zinc fingers 1-6, GST-SBP tag (UNK, Homo sapiens, UniProt Q9C0B0, residues 30-357)
UniProt Q9C0B0, sequence (30-357, looked up): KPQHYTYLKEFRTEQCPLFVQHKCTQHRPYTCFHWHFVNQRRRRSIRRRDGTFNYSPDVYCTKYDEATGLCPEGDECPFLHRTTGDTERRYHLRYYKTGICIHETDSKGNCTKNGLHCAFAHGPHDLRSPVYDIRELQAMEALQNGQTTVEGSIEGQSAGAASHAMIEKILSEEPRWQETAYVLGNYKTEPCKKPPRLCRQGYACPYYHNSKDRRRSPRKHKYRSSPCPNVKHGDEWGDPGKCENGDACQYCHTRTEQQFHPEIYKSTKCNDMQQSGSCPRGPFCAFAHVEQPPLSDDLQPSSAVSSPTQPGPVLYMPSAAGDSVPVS
Technique: RNA Bind-n-Seq
Form: RNA
Medium: in vitro
Tested at: not given
Notes: RNA with constant flanks, ends assumed
Baseline: input RNA pool
Direction: higher = stronger binding
Sequence	bound/input enrichment [ratio]
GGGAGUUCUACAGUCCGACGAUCAAUAUCAUCCCUAGUACUUUUUUGCCUAAACAAGAAGGACCUUUUUUCUUGGACUUUAACCGUACUGUCCCCAUCAAGACAACACAACUCCAAUGAUUGAGAACUCUCAGCUAUUACUGGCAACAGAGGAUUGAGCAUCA	0.742
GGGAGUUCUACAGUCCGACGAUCGUGAUGUUACUCUCCAUUUUUGGUACCAGUUCUGAGACUGUAAGACUUUUCAUCUGGGACUUCCGCACACACUGAAUCGAAGUUGUGAUACGCGGAGCGGGAGGUGGGCAUAGACUCUAUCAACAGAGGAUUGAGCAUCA	0.302
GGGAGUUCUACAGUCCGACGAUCGCAGACUUGGUAAAACCCAGGGUACAGUUAGAUUUUUUGUUGUUGUUGUAUUAUUUAAAUUACCGCCUUCCAAAAACUGUUUUUGAUCAUAAUUGCUGUAUCAUUUGUAAUUUUUUUUAACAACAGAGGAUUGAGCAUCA	10.9
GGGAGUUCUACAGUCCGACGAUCCUAGUUUGUGUUUGUUUUUAAGAUUAAAUUAAUCCUUGAUAAAAGUUGCUUUUUUAGGGGUCCGUCUUUGACCACUAUAGUUUGAUGCCAUCUCCAUUUUGGUUGACCUGUCUCACCAUCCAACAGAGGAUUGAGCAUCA	11.5
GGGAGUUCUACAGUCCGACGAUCUCUUGGUCUCCAAAUCCUACACCUUACUUUGAAACACCACUGGCUCCCUUUCCCAAUGGCCGUUUUGUGAAUGGCUUUAAUUCGCCAGGAUCUUAUAAAACAAAUGCUGCUGCUAUGAAUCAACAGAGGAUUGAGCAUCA	0.476
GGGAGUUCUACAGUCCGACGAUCCCUACAAUAAUGAAAACCUACAGGAAUUUUUUUAUUUUUCAUUUUCUUCUUAGGCACCGUCCGUCUUUUUCCCCCAGGCAGAUGAUUCUGAGUGUGGGAGUGUGUCUGCACAUGUUAAAACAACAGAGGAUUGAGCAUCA	0.478
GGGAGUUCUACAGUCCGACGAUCGCUGCUUUUCACAGUUUAGUGGGUUUGGCAGCUGUACUUACUUGCAUAGCUGAGUACAUUACCGAAUAUCCACAUUUUGCUACGGAUGCAGCAGCAAAUCUCACCAAGAUUGUGGCCUACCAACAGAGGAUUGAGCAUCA	0.103
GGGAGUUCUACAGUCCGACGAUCAGCAUUUUUUCCUGUUAACUUUAUAUUACAAAAUCCGUUCUACCAUAACAAUACAGAGGAACCCGCUGUGUUACUGCACCAGUGUUAUAGGUAACUUCAGUAUAUUAUGAACAAAUCAAACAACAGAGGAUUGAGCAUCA	0.613

Repeated from above (sample 2):
Change	normalised enrichment score
L8R	-0.231
D12E	3.62
D11Q	1.95
D12T	2.85
